Results collected from several papers.
Parts stem from different laboratories: compare values within a part only.

Set 1
Target: Prothrombin, mature alpha-thrombin (F2, Homo sapiens, UniProt P00734)
Method: aptamer microarray, sandwich
Form: DNA with 2'F-ANA
Matrix: in vitro
Tested at: 200 nM
Notes: whole 15-mer aptamer, many near background
Added: Cy3 exosite-II aptamer, 400 nM
Reading: higher = stronger binding
Sequence: GGTTGGTGTGGTTGG
Modification | mean fluorescence intensity [a.u.]
2'F-ANA at 6 9 11 14 | 156
2'F-ANA at 1 3 5 6 8 10 12 | 82.7
2'F-ANA at 2 3 4 5 6 8 9 11 12 | 171
2'F-ANA at 5 11 12 13 | 143
2'F-ANA at 2 4 6 8 10 12 13 14 | 56.2
2'F-ANA at 3 4 10 11 14 | 220
2'F-ANA at 1 2 3 8 9 10 12 13 14 | 55
2'F-ANA at 4 5 6 12 15 | 138
2'F-ANA at 2 6 7 8 9 11 14 15 | 116
2'F-ANA at 2 6 7 9 | 325
2'F-ANA at 1 2 3 6 9 10 13 15 | 69.8
2'F-ANA at 1 2 5 7 8 9 15 | 78.9
2'F-ANA at 2 5 7 8 9 10 11 13 15 | 54.8
2'F-ANA at 3 10 11 12 13 14 15 | 329
2'F-ANA at 1 3 5 6 7 10 12 13 14 | 71
2'F-ANA at 1 4 6 7 15 | 134
2'F-ANA at 1 3 4 6 7 8 9 12 13 15 | 259
2'F-ANA at 2 3 5 7 8 11 13 | 106
2'F-ANA at 1 2 3 4 5 6 9 13 | 50.7
2'F-ANA at 3 5 7 8 9 12 13 15 | 200
2'F-ANA at 2 3 4 5 9 10 12 13 15 | 57.6
2'F-ANA at 4 7 8 9 10 12 15 | 126
2'F-ANA at 3 8 9 10 11 | 585
2'F-ANA at 1 2 4 5 8 9 10 11 14 | 48.1
2'F-ANA at 3 7 8 9 12 13 | 1200

Set 2
Target: Interferon regulatory factor 5, full length, phosphomimetic (IRF5, Homo sapiens, UniProt Q13568-2, residues 1-514, S451D/S453D/S456D/S462D)
Method: protein-binding microarray
Form: double-stranded DNA, one strand shown
Matrix: in vitro
Tested at: 940 nM top
Notes: 60-bp whole probe
Added: salmon DNA 0.4 mg/ml
Relative to: random background probes
Reading: higher = stronger binding
All sequences stand within: GCCTAGCAC … GTCTTGATTCGCTTGACGCTGCTG
Sequence | fitted relative affinity
GACGGCTTCCTTATCCTGACGTGCTAG | 0.248 z-score
GACGGTTTCGGGTCTGGGGACGTGCTA | 8.83 z-score
GTAGGACTGCTTCTCCTTTAGTGCTAG | -0.0545 z-score
GCGATCCTCTCACCTCAGCCTGTGCTA | 0.804 z-score
TCAACTTTCTATGTCTGACTGTGCTAG | 1.11 z-score
TTGCTTGTGTTTATTGTGACGTGCTAG | 0.244 z-score
GACGGTATCCTTTTCTTGACGTGCTAG | 0.796 z-score
TTAGATATCAGTCTCGATAAGTGCTAG | 2.67 z-score
ACTGAAATCACCCTTGGAAGTGTGCTA | 0.734 z-score
TTAGCACTGAGACTGGATTAGTGCTAG | -0.4 z-score
TTAGGACTGCTGATCCTTTAGTGCTAG | -0.679 z-score
TCAATTACCTCATCTTTCACTGTGCTA | 1.29 z-score
GACGGACTGCTTTCCCTGACGTGCTAG | -0.216 z-score
TTAGATATCGGGACTGGCTTAGTGCTA | -0.0536 z-score
GACGGACTCGACACTGGGGACGTGCTA | -0.692 z-score
CCAGTTTTCTTTTCATTACTGTGCTAG | 2.5 z-score
GACGGTACCGGTATCGGGACGTGCTAG | 2.84 z-score

Set 3
Target: Histone acetyltransferase KAT6A, winged helix 1, GST fusion (KAT6A, Homo sapiens, UniProt Q92794, residues 1-85)
Method: protein binding microarray
Form: double-stranded DNA, one strand shown
Matrix: in vitro
Tested at: not given
Notes: 8-mer, flanks averaged, mean of 2 arrays, mostly near background
Relative to: not given
Reading: higher = stronger binding
Construct (chain): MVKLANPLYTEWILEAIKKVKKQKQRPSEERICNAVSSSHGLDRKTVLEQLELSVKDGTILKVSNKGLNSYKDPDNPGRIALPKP
Sequence | E-score
ACTATGCC | 0.144
ATGTGTTA | -0.139
GTTCGCCA | -0.108
GACCTCGC | 0.197
GGGCGCAC | 0.253
AACTACCT | -0.0939
CCAGTCAC | 0.0442
GATTGCGC | 0.333
CATTCGGG | 0.12
CCCGTTAA | 0.276
GTGGCAGA | -0.0354
CCAAATTA | -0.213
GTCCATGA | -0.0564
GCAGGGCA | -0.075
GGTCATAA | -0.112
CAAACACC | 0.0643
ACATGCTA | -0.125
CAAGGCAG | -0.201
ACAGGGCC | 0.0956
GCACCCGC | 0.377
GGCCGACA | 0.282
CGTTTGAG | -0.101

Set 4
Target: RNA binding protein fox-1 homolog 2, RRM domain, GST-SBP tag (RBFOX2, Homo sapiens, UniProt O43251-10, residues 100-194)
Method: RNA Bind-n-Seq
Form: RNA
Matrix: in vitro
Tested at: 365 nM
Notes: natural RNA segment, single round, ends assumed
Relative to: no-protein control
Reading: higher = stronger binding
All sequences stand within: GGGAGUUCUACAGUCCGACGAUC … UGGAAUUCUCGGGUGCCAA
Construct (chain): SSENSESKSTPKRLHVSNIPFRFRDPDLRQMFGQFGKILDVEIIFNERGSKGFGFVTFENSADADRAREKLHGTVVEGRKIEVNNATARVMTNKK
Sequence | RBNS enrichment (R)
UACCAGUGAGUGCCUUAAAGUUGGAGAAGUAACUGCCCAUGCCCAGAAAUAAGGAUGCCAGUGCCCAGAAGCAGUGAGAUUAGUCUGUGUCCACAAGCAGAGGCCCCCUC | 3.26
UCUGCAGCCCACAUGAUCCUUGAGAGUUUUGGGUUUCGGUAACACCUCAGGGCCACUGCAUUGUUUUGCCAAAAUCUUACUCCAGAUUAAGUACAGAACUUGGUUUCUAA | 0.448
UUUUGUUGGUGACCUGGAUAGUGUGGCCUUUGGGACAGAUCAGAGGCACAGGAAAGCAAAGGAAAUGUGCCACCCUUUAGCCUGGCAGGGUCUCCCUGCCCACUGGGCUG | 0.492
UUUUAAAUACUAGAGAGACAGUGGACUAGGAAAGCGAGAACUUGCCGCCUUGUCUAGUGACUGUAUUCAAUGACUGAACAGAGGCCCCCCCCACCAUACAAGAGUUUUAG | 0.457
AGACUGCCUGCCUUGGAGGGGUCACAUGAGGGAGACCUGUGCCUGAUUUCAUUAGGAAAUCCAUUCUGUUAUUUUUUGGUGCUGUUGGCUACUUUAUCAAAAAACCCUUC | 1.15
UUGCUUAGUGUCCAUCUCAUUUCUUGAUCAAAGCCACUUUAGUGAGAAAUAGGUACCAGUCCUCAGGACGAGCCAGGAUCCCUCAGGGGAGAGGGCAGACGAUGCCUGGG | 0.249
UUCCAAAGAAAACUACCACAUCUUGACAUUUCAUCCUUUUCUGAGUCCAAGGCCAAGAACCUCAUCAAGGAGGCAGGCAACGAGUUUGUACAGCACAAUGCCAGACAGUU | 0.523
GAUGAGAAUUUUUCUCCUAUAUACUAAAUCCUCUUAAAGACUCAACUCUUUGUAGUUUUGUCAAAGACAAAUACUCUGUAAAGUCCCCCACCUACCCCAGAUCUACAGCU | 0.525
AGCGGAGCAGAUGCCUGUCCAAGCUGGUCAAGUCCUUCUAGUUCUUGGGCUGAAAUAAGUAACAGUCUGAGGCAGCCUGCGCCACAGUAAAGUGUGUUGGUUUGCUUGGA | 0.263
GAUAGGUUUGCAAUAUGUGGGAUUCAGCCUUUGAUUUCAAUAGAGCUGAGAGCUUUUAGAACAAGCAGGCAUUUAUUUAAUGUUUCCUUAGUCCAUUGGCAAGCUUUAUC | 0.287
CCUUCUCCAAGCUUGAAUGUCUUCCGGACCCUGAGAGAGGAGGACUCCACGGAGCCAGGCCUCCUCCCAUGGGGUGUCCCAGUGUAUAACUUUAUGACUUAGUUCUUCAU | 0.491
CAAGCUAGAUUUCCGACAGCAUUAUUCUGAGAGCUGGCUACCAUUACCCUUCUUGCUAUUGGAAACUCAGCACAUUUGAACUUGGGUUUGAUUCAGUAUUAACAGAUCUU | 7.75

Set 5
Target: TAR DNA-binding protein 43, full length, His tag (TARDBP, Homo sapiens, UniProt Q13148, residues 1-414)
Method: RNA Bind-n-Seq
Form: RNA
Matrix: in vitro
Tested at: 20 nM
Notes: 6-mer, flanks averaged, single round
Added: 150 mM LiCl
Relative to: input library
Reading: higher = stronger binding
Sequence | 6-mer enrichment (R)
UUUCUA | 1.01
UUUUAG | 1.18
CUGGAA | 0.88
CGCAAC | 0.861
GUUCGA | 0.917
UUCUUG | 1.05
UUGGCU | 1
UUCUAU | 0.971
GCCAGA | 0.896
AUUGCG | 0.99
GACUCC | 0.968
CCAGCA | 0.912

Set 6
Target: Sal-like protein 4, full length isoform A (SALL4, Homo sapiens, UniProt Q9UJQ4, residues 1-1053)
Chain of UniProt Q9UJQ4 (whole entry, looked up): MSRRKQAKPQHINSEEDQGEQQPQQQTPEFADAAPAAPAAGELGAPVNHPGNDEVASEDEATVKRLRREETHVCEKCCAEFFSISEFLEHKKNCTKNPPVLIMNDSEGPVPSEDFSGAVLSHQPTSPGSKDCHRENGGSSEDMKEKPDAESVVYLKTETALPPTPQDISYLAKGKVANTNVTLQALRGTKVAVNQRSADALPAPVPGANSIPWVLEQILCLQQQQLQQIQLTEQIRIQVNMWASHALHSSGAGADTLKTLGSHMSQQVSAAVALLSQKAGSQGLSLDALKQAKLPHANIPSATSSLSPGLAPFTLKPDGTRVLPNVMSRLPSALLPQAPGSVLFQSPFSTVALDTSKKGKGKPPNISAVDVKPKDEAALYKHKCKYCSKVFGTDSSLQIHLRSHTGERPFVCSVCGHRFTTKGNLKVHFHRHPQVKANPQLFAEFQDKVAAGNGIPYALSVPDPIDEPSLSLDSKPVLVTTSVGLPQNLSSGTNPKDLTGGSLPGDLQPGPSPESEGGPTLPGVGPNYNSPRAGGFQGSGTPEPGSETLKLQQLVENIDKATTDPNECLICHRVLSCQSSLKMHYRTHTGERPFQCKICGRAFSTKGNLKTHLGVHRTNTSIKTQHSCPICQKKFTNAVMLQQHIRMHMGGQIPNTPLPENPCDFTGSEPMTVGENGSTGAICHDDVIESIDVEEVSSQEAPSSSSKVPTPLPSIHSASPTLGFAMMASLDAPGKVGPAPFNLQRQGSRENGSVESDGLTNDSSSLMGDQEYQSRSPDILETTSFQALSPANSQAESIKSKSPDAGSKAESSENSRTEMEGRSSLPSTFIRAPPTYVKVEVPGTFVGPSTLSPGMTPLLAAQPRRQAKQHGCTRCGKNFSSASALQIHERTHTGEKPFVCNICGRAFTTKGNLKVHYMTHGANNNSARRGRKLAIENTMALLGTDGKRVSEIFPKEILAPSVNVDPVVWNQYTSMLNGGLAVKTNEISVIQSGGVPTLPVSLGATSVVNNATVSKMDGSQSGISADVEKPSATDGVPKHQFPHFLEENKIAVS
Method: universal PBM
Form: double-stranded DNA, one strand shown
Matrix: in vitro
Tested at: 600 nM
Notes: 8-mer, flanks averaged, mean of replicates
Reading: higher = stronger binding
Sequence | E-score
ACGCTAAA | 0.0889
GGGTAACA | -0.0852
GCAGATTA | 0.127
AGCAACCT | -0.152
AATCGCCG | -0.249
CCGGAACC | -0.403
AGATGGGG | -0.232
AGTGCTGG | -0.0991
CCGAACTC | -0.188
AGGATGCG | -0.0883
AACTGAAA | 0.225
CAGGCTGA | -0.215
ACCGCTTG | -0.101
GTAAGCTA | 0.102
ATTACTGG | 0.144
CGTAAGGA | 0.0242
